{"data": "Results collected from several papers", "note": "Each numbered part is a random draw from the data of one study; scales do not carry over between parts."}
{"data": "Set 1", "target": "Interferon regulatory factor 5, full length, phosphomimetic (IRF5, Homo sapiens, UniProt Q13568-2, residues 1-514, S451D/S453D/S456D/S462D)", "method": "protein-binding microarray", "molecule type": "double-stranded DNA, one strand shown", "medium": "in vitro", "tested at": "940 nM top", "setting": "60-bp whole probe", "with": "salmon DNA 0.4 mg/ml", "baseline": "random background probes", "reading": "higher = stronger binding", "shared flanks, not repeated": "GCCTAGCAC … GTCTTGATTCGCTTGACGCTGCTG"}
{"Oligonucleotide": "TTAGGTTCCCTTTTCCTTTGGTGCTAG", "fitted relative affinity": "0.808 z-score"}
{"Oligonucleotide": "TTAGGTTTCGGTATCGTTTAGTGCTAG", "fitted relative affinity": "15.3 z-score"}
{"Oligonucleotide": "TTAGATTTCAGTATCGATGAGTGCTAG", "fitted relative affinity": "4.8 z-score"}
{"Oligonucleotide": "TTCAGTTTCACTGCTGCCCTGTGCTAG", "fitted relative affinity": "6.6 z-score"}
{"Oligonucleotide": "GACGGACTGCGACTGCTGACGTGCTAG", "fitted relative affinity": "-0.744 z-score"}
{"Oligonucleotide": "GACGGACTGCTATTCCTGACGTGCTAG", "fitted relative affinity": "-0.209 z-score"}
{"Oligonucleotide": "GACGGTATCCTACGGCTGACGTGCTAG", "fitted relative affinity": "-0.486 z-score"}
{"Oligonucleotide": "GACGGACTGTACACTGGGGACGTGCTA", "fitted relative affinity": "-0.444 z-score"}
{"Oligonucleotide": "GGCTTTTTTTTTTTTTTTTTGTGCTAG", "fitted relative affinity": "0.703 z-score"}
{"Oligonucleotide": "GACGGTCTCCGTCTCCTGACGTGCTAG", "fitted relative affinity": "-0.225 z-score"}
{"Oligonucleotide": "GACGGTATCAGTTTCGAGACGTGCTAG", "fitted relative affinity": "5.35 z-score"}
{"Oligonucleotide": "TCAACACTCGGTTTCCAACTGTGCTAG", "fitted relative affinity": "0.244 z-score"}
{"Oligonucleotide": "TGCGGTTCAGATATAGGATAGTGCTAG", "fitted relative affinity": "-0.337 z-score"}
{"Oligonucleotide": "GGTTTTCTAATGTTTTTTAAAGTGCTA", "fitted relative affinity": "1.24 z-score"}
{"Oligonucleotide": "TCTAATTTACTTTGGTTGGCGTGCTAG", "fitted relative affinity": "0.2 z-score"}
{"Oligonucleotide": "TTGGTTTTCCTTATTGCTTCGTGCTAG", "fitted relative affinity": "1.88 z-score"}
{"Oligonucleotide": "GACGGACTGGGGTTCGGGACGTGCTAG", "fitted relative affinity": "-0.41 z-score"}
{"Oligonucleotide": "CCTAATCTCAGCCTCCGTCAGTGCTAG", "fitted relative affinity": "0.869 z-score"}
{"Oligonucleotide": "TTACGACTGCTTATCCTTTAGTGCTAG", "fitted relative affinity": "0.483 z-score"}
{"data": "Set 2", "target": "RNA binding protein fox-1 homolog 2, RRM domain, GST-SBP tag (RBFOX2, Homo sapiens, UniProt O43251-10, residues 100-194)", "method": "RNA Bind-n-Seq", "molecule type": "RNA", "medium": "in vitro", "tested at": "365 nM", "setting": "natural RNA segment, single round, ends assumed", "baseline": "no-protein control", "reading": "higher = stronger binding", "Residues (chain)": "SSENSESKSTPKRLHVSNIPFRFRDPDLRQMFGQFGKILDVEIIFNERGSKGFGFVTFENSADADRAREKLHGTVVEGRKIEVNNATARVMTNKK"}
{"Oligonucleotide": "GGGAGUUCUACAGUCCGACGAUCGAUUCAUAUUGGAUCCCCAGGUAUACCUUCUGCUGGUAGCAUAUGGCUGGAAAAGGCCGUUUGCCUCACACAUUGUAACCUGCCUUGGCUAGAAAAUGCUUUUAAUGUCUUGGAAUUCUCGGGUGCCAA", "RBNS enrichment (R)": 0.269}
{"Oligonucleotide": "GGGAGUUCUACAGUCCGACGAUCAUGGGAGCUUAACUUUAUAAGGAAAUGUAUUUUGACACUGGUAUCUUAUUAAAGUAUUCUGAUCCUACCACUGCUGGUGGCUCUUAUUUCCUGUGGAUUUAUCAUGGGCUUGGAAUUCUCGGGUGCCAA", "RBNS enrichment (R)": 0.292}
{"Oligonucleotide": "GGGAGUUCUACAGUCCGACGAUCGGAAGGUGCCAGGUGCACUUGGGGUUGGGGUUGGUGUGUUGGGUGUUGAAGUGGAAUCGUUUCAUCCCAGCCAUGGAGGCCACCAGCAGGAGUGUUCAUGGGGAUGUGGGUGGAAUUCUCGGGUGCCAA", "RBNS enrichment (R)": 0.774}
{"Oligonucleotide": "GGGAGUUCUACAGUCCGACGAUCAUGAUUUGUAACAUUCACACAACACCUCACUUUUGAAUCUAUAAAAGAAUUGCACGUAUGAGAAACCUAUAUUUCAAUACUGCUGAAACAGACAUGAAAUAAAGAAUUUAUGGAAUUCUCGGGUGCCAA", "RBNS enrichment (R)": 8.44}
{"Oligonucleotide": "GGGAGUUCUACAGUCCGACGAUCAAGAGCUUCUUUGAGGCCAAGAAGCUGGUGUAGGGGUCUCGCCCUAUAACCUUCCCCUUUUACCUCAAUUAUUUGAUAAUUUCCCCACCCAGCCCCUCAUCCACCUGGAAUGGAAUUCUCGGGUGCCAA", "RBNS enrichment (R)": 0.503}
{"Oligonucleotide": "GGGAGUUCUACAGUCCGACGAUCAGUUGAAUGCAGAUUUUUAUCCAUAGAUAACUGUAGUGUUUUGAAAUGAUAGGCCCUACCUUUGAAGUUUCUAAGACUUAUUAUGGGAUGUAAAUCUGUUUUUUAAAAACUGGAAUUCUCGGGUGCCAA", "RBNS enrichment (R)": 0.42}
{"Oligonucleotide": "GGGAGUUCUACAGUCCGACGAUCCAGUGUACCAGAACCUGAGGAUGCUCGCUGCAAGGCCUCAGUUCUCAGGCCUUAGGGUGUAUUUGUCUUUCAGGAAGAUCAUAAUGGACAGAGAUCCUUGGAGGUUCAAAUGGAAUUCUCGGGUGCCAA", "RBNS enrichment (R)": 0.506}
{"Oligonucleotide": "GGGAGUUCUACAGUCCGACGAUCUUAUCAUUCUCUCUGCCUGCCCACCCCCUUUUUUGUAUAGCCCAAGAACCACUUCCAUGCCAUACUGUAACAUUCCAACAUCUUUAGCUGAUCAGAUCUCUCCAUAUCCUUGGAAUUCUCGGGUGCCAA", "RBNS enrichment (R)": 1.1}
{"data": "Set 3", "target": "Histone acetyltransferase KAT6A, winged helix 2, GST fusion (KAT6A, Homo sapiens, UniProt Q92794, residues 85-181)", "method": "protein binding microarray", "molecule type": "double-stranded DNA, one strand shown", "medium": "in vitro", "tested at": "not given", "setting": "8-mer, flanks averaged, mean of 2 arrays, mostly near background", "baseline": "not given", "reading": "higher = stronger binding", "Construct (chain)": "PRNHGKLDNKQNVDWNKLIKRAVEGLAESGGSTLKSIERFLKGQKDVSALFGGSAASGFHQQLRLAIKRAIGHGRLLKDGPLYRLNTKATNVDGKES"}
{"Oligonucleotide": "CGCCATAG", "E-score": 0.0915}
{"Oligonucleotide": "CGGGGTAA", "E-score": 0.00639}
{"Oligonucleotide": "AAAACAGC", "E-score": 0.00257}
{"Oligonucleotide": "ACAAGAGA", "E-score": -0.121}
{"Oligonucleotide": "AGCTAGCG", "E-score": -0.0789}
{"Oligonucleotide": "AGGTGCGG", "E-score": 0.123}
{"Oligonucleotide": "CCTCGAAA", "E-score": 0.0946}
{"Oligonucleotide": "CGTACGGA", "E-score": -0.13}
{"Oligonucleotide": "ATGAGTAC", "E-score": -0.18}
{"Oligonucleotide": "GATCTGAA", "E-score": -0.00679}
{"Oligonucleotide": "TCCGGTAA", "E-score": -0.0269}
{"Oligonucleotide": "GAAGGAGA", "E-score": -0.172}
{"Oligonucleotide": "AGGGTCAT", "E-score": -0.16}
{"Oligonucleotide": "AAGGTCAA", "E-score": -0.103}
{"Oligonucleotide": "CCCAAGCG", "E-score": 0.118}
{"Oligonucleotide": "CGCGGCCA", "E-score": 0.231}
{"Oligonucleotide": "CTGCCCCC", "E-score": -0.00175}
{"Oligonucleotide": "GAAACCCC", "E-score": 0.0627}
{"Oligonucleotide": "GATTGAAC", "E-score": 0.0245}
{"Oligonucleotide": "CTAAAAGC", "E-score": 0.0264}
{"Oligonucleotide": "ACTCAACG", "E-score": -0.0771}
{"Oligonucleotide": "AGTTCTGC", "E-score": 0.0742}
{"Oligonucleotide": "AAGCCCTG", "E-score": 0.0743}
{"Oligonucleotide": "GAGCTAAA", "E-score": -0.0561}
{"Oligonucleotide": "CACGTCCC", "E-score": -0.236}
{"data": "Set 4", "target": "Sal-like protein 4, full length isoform B (SALL4, Homo sapiens, UniProt Q9UJQ4-2, residues 1-616)", "method": "universal PBM", "molecule type": "double-stranded DNA, one strand shown", "medium": "in vitro", "tested at": "not given", "setting": "8-mer, flanks averaged, mean of replicates", "reading": "higher = stronger binding"}
{"Oligonucleotide": "AATAAGCG", "E-score": 0.154}
{"Oligonucleotide": "CGGTTTTC", "E-score": -0.156}
{"Oligonucleotide": "ACCGTCGC", "E-score": -0.21}
{"Oligonucleotide": "AGTCTGCG", "E-score": -0.255}
{"Oligonucleotide": "CGAAGCGA", "E-score": -0.156}
{"Oligonucleotide": "TAACTGCA", "E-score": 0.191}
{"Oligonucleotide": "CCCTGCAA", "E-score": -0.058}
{"Oligonucleotide": "ACAACCCT", "E-score": -0.143}
{"Oligonucleotide": "ACCACCCT", "E-score": -0.272}
{"Oligonucleotide": "ATCAGTTC", "E-score": -0.104}
{"Oligonucleotide": "AGGCAAAA", "E-score": 0.124}
{"Oligonucleotide": "CGAGTCGC", "E-score": -0.257}
{"Oligonucleotide": "CTCTGCTA", "E-score": -0.163}
{"Oligonucleotide": "AAGCCGCG", "E-score": -0.218}
{"Oligonucleotide": "CAGCGATC", "E-score": -0.162}
{"Oligonucleotide": "CTCTACAA", "E-score": 0.078}
{"Oligonucleotide": "GTAGTAAC", "E-score": 0.0566}
{"Oligonucleotide": "CCCGAAGA", "E-score": -0.089}
{"Oligonucleotide": "CTAAGTTA", "E-score": 0.226}
{"Oligonucleotide": "ACCGCACC", "E-score": -0.348}
{"note": "Some of these lines once more (set 3):"}
{"Oligonucleotide": "AGGTGCGG", "E-score": 0.123}
{"Oligonucleotide": "ATGAGTAC", "E-score": -0.18}
{"Oligonucleotide": "AAAACAGC", "E-score": 0.00257}
{"Oligonucleotide": "GAAGGAGA", "E-score": -0.172}
{"Oligonucleotide": "GATCTGAA", "E-score": -0.00679}
{"Oligonucleotide": "CTAAAAGC", "E-score": 0.0264}
{"Oligonucleotide": "GATTGAAC", "E-score": 0.0245}
{"Oligonucleotide": "AAGCCCTG", "E-score": 0.0743}
